Published values of several laboratories.
Each line is one published result; not all experiments were run side by side.
Chain of UniProt Q8TD08 (whole entry, looked up): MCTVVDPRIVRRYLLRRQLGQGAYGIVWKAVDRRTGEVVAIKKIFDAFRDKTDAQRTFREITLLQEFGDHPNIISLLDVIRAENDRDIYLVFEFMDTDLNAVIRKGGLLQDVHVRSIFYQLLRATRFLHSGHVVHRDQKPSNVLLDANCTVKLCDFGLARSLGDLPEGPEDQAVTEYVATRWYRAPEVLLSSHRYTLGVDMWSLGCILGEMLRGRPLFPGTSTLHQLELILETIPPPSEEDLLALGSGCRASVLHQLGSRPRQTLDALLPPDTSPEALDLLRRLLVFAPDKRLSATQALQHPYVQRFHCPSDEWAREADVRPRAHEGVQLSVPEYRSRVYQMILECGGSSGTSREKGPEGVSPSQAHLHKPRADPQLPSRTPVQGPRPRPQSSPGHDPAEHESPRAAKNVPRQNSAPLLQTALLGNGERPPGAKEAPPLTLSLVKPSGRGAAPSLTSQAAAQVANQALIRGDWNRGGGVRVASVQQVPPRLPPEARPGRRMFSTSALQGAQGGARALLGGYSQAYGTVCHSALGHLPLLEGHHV
Chain of UniProt P45983 (whole entry, looked up): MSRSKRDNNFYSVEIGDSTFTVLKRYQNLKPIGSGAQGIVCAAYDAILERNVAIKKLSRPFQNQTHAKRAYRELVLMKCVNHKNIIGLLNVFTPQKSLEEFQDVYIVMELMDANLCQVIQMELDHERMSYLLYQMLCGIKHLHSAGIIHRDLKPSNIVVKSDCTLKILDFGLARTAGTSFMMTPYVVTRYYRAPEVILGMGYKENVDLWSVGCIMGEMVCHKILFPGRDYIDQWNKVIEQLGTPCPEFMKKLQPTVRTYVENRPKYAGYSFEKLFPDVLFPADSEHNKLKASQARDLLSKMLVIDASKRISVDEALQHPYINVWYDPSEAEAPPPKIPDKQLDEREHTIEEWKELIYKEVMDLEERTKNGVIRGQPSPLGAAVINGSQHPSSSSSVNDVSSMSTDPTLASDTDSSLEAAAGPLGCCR
Chain of UniProt Q16539 (whole entry, looked up): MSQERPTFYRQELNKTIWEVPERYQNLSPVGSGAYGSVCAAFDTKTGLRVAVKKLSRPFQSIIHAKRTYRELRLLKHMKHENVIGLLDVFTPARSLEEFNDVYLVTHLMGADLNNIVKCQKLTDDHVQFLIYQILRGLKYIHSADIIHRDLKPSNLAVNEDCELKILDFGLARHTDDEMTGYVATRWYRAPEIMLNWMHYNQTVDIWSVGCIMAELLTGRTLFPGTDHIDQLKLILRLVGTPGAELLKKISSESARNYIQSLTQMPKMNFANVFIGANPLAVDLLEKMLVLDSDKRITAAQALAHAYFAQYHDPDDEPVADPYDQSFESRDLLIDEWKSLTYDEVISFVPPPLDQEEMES
Chain of UniProt O75417 (whole entry, looked up): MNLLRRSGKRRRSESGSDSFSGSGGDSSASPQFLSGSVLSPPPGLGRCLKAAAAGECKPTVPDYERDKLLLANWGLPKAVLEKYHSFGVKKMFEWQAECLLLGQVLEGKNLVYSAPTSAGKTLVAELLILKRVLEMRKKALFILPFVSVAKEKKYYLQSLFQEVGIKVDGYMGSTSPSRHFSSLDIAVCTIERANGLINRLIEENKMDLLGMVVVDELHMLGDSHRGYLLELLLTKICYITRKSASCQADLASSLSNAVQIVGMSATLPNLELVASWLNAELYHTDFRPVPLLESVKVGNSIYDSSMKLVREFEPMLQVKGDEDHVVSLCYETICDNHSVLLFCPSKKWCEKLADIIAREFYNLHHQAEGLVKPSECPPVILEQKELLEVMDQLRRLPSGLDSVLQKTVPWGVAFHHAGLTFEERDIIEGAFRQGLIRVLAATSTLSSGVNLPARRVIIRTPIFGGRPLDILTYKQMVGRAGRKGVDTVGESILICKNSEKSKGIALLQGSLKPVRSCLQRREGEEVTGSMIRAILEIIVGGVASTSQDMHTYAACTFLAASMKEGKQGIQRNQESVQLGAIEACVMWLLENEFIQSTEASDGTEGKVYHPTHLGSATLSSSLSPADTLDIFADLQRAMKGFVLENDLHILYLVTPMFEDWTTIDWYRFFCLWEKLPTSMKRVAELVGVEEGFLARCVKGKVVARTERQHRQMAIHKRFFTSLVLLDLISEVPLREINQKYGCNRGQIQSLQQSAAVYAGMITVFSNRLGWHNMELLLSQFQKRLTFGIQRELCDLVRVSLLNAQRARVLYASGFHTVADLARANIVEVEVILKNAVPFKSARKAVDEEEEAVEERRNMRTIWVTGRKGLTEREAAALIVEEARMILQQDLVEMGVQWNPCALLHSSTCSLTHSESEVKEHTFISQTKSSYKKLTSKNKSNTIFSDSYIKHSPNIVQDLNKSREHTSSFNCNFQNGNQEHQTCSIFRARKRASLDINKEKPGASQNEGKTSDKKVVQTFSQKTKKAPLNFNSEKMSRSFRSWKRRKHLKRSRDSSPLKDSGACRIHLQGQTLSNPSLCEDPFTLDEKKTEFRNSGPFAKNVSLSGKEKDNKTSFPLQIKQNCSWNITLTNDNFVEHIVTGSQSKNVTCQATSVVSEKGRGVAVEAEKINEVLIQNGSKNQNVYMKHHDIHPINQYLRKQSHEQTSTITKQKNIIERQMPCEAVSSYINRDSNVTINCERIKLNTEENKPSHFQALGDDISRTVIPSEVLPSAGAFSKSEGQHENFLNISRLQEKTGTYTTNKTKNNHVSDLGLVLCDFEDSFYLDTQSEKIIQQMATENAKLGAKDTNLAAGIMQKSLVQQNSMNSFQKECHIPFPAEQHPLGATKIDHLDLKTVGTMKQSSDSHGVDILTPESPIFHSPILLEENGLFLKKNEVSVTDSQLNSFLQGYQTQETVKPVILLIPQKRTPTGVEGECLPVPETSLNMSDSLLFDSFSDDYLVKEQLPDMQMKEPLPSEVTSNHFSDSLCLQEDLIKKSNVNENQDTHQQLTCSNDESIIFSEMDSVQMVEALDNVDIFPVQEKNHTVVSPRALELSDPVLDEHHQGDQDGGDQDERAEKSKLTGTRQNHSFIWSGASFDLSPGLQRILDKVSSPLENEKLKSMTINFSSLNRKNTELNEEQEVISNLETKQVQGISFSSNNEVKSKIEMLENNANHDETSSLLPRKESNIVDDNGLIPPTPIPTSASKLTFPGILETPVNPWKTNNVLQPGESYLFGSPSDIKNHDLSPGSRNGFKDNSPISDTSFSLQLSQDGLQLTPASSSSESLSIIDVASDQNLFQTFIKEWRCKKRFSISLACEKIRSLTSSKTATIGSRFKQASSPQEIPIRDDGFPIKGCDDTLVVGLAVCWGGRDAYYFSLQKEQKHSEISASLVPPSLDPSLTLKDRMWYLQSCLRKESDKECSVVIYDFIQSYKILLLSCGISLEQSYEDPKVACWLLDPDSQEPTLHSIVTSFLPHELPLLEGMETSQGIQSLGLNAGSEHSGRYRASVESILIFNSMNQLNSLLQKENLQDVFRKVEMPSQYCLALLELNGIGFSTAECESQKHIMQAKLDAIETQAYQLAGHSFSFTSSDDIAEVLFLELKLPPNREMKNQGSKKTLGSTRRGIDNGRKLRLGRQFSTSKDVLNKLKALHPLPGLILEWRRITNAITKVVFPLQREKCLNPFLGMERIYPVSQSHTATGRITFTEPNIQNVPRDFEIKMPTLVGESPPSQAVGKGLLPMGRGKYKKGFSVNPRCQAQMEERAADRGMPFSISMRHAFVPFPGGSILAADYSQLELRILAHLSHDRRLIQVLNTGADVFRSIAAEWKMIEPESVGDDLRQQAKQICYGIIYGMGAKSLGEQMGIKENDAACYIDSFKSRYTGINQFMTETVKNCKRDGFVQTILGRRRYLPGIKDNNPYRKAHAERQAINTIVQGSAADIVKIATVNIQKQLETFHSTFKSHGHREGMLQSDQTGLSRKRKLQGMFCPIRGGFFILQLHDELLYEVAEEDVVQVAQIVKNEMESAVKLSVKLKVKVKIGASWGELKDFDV
Chain of UniProt P08473 (whole entry, looked up): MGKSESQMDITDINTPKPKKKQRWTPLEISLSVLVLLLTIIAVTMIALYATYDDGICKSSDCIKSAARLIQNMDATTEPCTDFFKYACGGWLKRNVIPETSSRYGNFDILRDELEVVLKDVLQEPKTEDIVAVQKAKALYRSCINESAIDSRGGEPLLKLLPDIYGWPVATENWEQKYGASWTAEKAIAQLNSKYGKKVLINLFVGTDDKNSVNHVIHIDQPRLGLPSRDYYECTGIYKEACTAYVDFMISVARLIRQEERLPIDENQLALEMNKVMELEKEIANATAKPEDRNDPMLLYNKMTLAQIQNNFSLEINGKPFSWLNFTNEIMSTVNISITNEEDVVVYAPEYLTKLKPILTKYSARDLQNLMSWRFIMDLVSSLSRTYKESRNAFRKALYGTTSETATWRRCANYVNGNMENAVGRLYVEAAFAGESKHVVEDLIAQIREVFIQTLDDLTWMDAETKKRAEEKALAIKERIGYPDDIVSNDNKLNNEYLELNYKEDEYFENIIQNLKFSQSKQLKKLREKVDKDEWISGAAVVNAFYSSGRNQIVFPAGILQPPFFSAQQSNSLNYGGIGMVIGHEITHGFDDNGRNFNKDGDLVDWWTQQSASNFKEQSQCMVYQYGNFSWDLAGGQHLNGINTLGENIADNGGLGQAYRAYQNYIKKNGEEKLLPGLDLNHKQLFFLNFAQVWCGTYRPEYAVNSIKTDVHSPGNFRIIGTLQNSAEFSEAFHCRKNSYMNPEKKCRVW

`C=C1C[C@@]2(C(=O)OC)C=C(C(=O)Nc3cccc(C(=O)Nc4ccc(Nc5nccc(-c6cccnc6)n5)c(C)c4)c3)C(=O)[C@@H]1C2` has a remaining activity of 0.247 (MAPK8 (Homo sapiens, UniProt P45983); kinase activity, inhibitor; 0.5487 µM, unit not given, with: 10 mM glutathione; relative to: no inhibitor).
For `O=C=[N][Ru-4]123([n]4c5ccc(O)cc5c5c6c(c7cc(F)c[n+]1c7c54)C(=O)NC6=O)[S+]1CC[S+]2CC[S+]3CC1` (stereo not shown), the remaining activity was 107% (ABL1 (Homo sapiens, UniProt P00519, T315I); enzyme activity; 100 nM, human enzyme, with: 10 µM ATP; relative to: untreated).
With `COc1ccccc1-c1ccncc1C(=O)Nc1nnc(OCc2ccc(Cl)cc2)s1` the remaining activity was 51% (DNA polymerase theta, helicase domain (POLQ, Homo sapiens, UniProt O75417); ATPase activity, ADP-Glo; 0.03 µM, with: ATP 600 µM).
`CC(C)[C@@H]1NC(=O)[C@H](Cc2ccccc2)NC(=O)CSC[C@@H](C(N)=O)NC(=O)[C@H](CCC(=O)O)NC(=O)[C@H](CO)NC(=O)[C@H](Cc2c[nH]c3cccc(Cl)c23)NC(=O)[C@H](C2CCCCC2)NC(=O)[C@H](C(C)C)NC(=O)[C@H](Cc2ccc(O)cc2)NC(=O)[C@H](CC(=O)O)NC(=O)[C@H](Cc2c[nH]c3ccccc23)NC(=O)[C@H](Cc2ccc(N)nc2)NC(=O)[C@H](Cc2c[nH]c3ccc(Cl)cc23)NC(=O)[C@H](CCC(=O)O)NC1=O` gave a remaining activity of 86.1% (Interleukin-1 receptor-like 2 (IL1RL2, Homo sapiens, UniProt Q9HB29); reporter gene (SEAP), inhibitor, HEK-Blue IL-36R reporter; HEK-Blue IL-36R cells; 0.14 µM, 6 h, with: IL-36β 30 ng/mL).
The hepatic clearance of `CC(C)CC(=O)Nc1ccc(C2CCCCC2)cc1` is reported as 27 mL/min/kg (liver microsome stability; dog liver microsomes; 1 µM).
The remaining activity of `C[C@](C(=O)NC1CCOCC1)(c1cncnc1)N(C(=O)[C@H](F)Cl)c1ccc(OC(F)(F)Cl)cc1` is reported as 103% (Neprilysin (MME, Homo sapiens, UniProt P08473); enzyme activity, inhibitor; 10 µM).
`COc1ccc(NC(=O)Nc2ccc3c(c2)C(=O)N(C(C)CO)CC(C)C(CN(C)Cc2ccc4c(c2)OCO4)O3)cc1` (stereo not shown) has a remaining activity of 103% (ABL1 (Homo sapiens, UniProt P00519, Q252H); kinase activity; 0.03 µM; relative to: control).
For `COC(=O)[C@@]1(C)C=C(C(=O)Nc2cccc(C(=O)Nc3ccc(Nc4nccc(-c5cccnc5)n4)c(C)c3)c2)C(=O)CC1`, the remaining activity was 0.614 (MAPK14 (Homo sapiens, UniProt Q16539); kinase activity, inhibitor; 14.81 µM, unit not given; relative to: no inhibitor).
For `Cc1cccc(-c2ccc3nc(NC(=O)C4CCCO4)nn3c2)c1` (stereo not shown), the remaining activity was 86% (MAPK15 (Homo sapiens, UniProt Q8TD08); enzyme activity, Dundee kinase panel; 10 µM).
The hepatic clearance of `O=C(Nc1ccc(C2CCCCC2)cc1)C1(N2CCOCC2)CC1` is reported as 28 mL/min/kg (liver microsome stability; dog liver microsomes; 1 µM).

Some of these lines once more:
The hepatic clearance of `O=C(Nc1ccc(C2CCCCC2)cc1)C1(N2CCOCC2)CC1` is reported as 28 mL/min/kg (liver microsome stability; dog liver microsomes; 1 µM).
For `O=C=[N][Ru-4]123([n]4c5ccc(O)cc5c5c6c(c7cc(F)c[n+]1c7c54)C(=O)NC6=O)[S+]1CC[S+]2CC[S+]3CC1` (stereo not shown), the remaining activity was 107% (ABL1 (Homo sapiens, UniProt P00519, T315I); enzyme activity; 100 nM, human enzyme, with: 10 µM ATP; relative to: untreated).
